# Results gathered from unrelated publications.
# Every numbered part comes from another study and shows a few of its results, in no order.

# Block 1
# Substance: PhoQ, residues 284 288 289 292 302 303 NLCILV
# Technique: Sort-seq
# Measured: YFP reporter
# Matrix: E. coli
# Notes: PhoQ-PhoP variant library
# Added: 10 µM Mg2+
# Reference: high Mg2+ state
# Direction: higher = stronger signaling
target,fold induction
"PhoP, residues 12 14 15 18 19 VHTVL (Escherichia coli, UniProt P23836)",15.2
"PhoP, residues 12 14 15 18 19 ICWRQ (Escherichia coli, UniProt P23836)",2.59
"PhoP, residues 12 14 15 18 19 TQCLL (Escherichia coli, UniProt P23836)",3.78

# Block 2
# Target: Histone acetyltransferase KAT6A, winged helix 2, GST fusion (KAT6A, Homo sapiens, UniProt Q92794, residues 85-181)
# Technique: protein binding microarray
# Molecule type: double-stranded DNA, one strand shown
# Matrix: in vitro
# Concentration: not given
# Notes: 8-mer, flanks averaged, mean of 2 arrays, mostly near background
# Reference: not given
# Direction: higher = stronger binding
# Target sequence (chain): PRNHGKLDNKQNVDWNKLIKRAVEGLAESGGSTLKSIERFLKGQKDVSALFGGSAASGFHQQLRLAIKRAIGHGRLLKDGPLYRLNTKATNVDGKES
Strand,E-score
CGCAATTC,-0.0327
TAGACAGA,0.115
ATAGCGAG,-0.0136
CGGAATAC,0.0357
CAGACTCG,-0.0352

# Block 3
# Target: Centromere-binding protein 1, full length, N-terminal tag (CBF1, Saccharomyces cerevisiae, UniProt P17106, residues 1-351)
# UniProt P17106, sequence (whole entry, looked up): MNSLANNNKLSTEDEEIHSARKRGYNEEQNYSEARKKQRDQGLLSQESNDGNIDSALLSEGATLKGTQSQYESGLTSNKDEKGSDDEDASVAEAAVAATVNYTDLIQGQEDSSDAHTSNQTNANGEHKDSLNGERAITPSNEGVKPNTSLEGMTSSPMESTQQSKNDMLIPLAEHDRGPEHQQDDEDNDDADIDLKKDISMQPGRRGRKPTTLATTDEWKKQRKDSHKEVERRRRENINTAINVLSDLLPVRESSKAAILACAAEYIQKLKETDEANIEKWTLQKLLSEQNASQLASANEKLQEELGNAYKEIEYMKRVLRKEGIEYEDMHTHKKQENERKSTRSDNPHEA
# Technique: protein-binding microarray
# Molecule type: double-stranded DNA, one strand shown
# Matrix: in vitro
# Concentration: 0.8 µM
# Notes: whole 60-bp probe, no competitor
# Direction: higher = stronger binding
Strand,fluorescence intensity [a.u.]
GAAAAATGAAATCTCAACGTGGTTGTAAGAGTTTAGGTCTTGATTCGCTTGACGCTGCTG,524
CTATCTCCTAAACGGCATGTGATTGAACACGGTTTCGTCTTGATTCGCTTGACGCTGCTG,1530
CTATTGCTGTTGAGTGGTCTCATGACAATAAAGTTCGTCTTGATTCGCTTGACGCTGCTG,1160
GAAGAGATGTGCAACAATGTGACCAGTACACGTTAGGTCTTGATTCGCTTGACGCTGCTG,808

# Block 4
# Target: Prothrombin, mature alpha-thrombin (F2, Homo sapiens, UniProt P00734)
# Technique: aptamer microarray, sandwich
# Molecule type: DNA with 2'F-ANA
# Matrix: in vitro
# Concentration: 200 nM
# Notes: whole 15-mer aptamer, many near background
# Added: Cy3 exosite-II aptamer, 400 nM
# Direction: higher = stronger binding
# Strand: GGTTGGTGTGGTTGG
Modification,mean fluorescence intensity [a.u.]
2'F-ANA at 4 5 7 9 10 11 14,46.5
2'F-ANA at 1 4 5 9 12 14 15,49.3
2'F-ANA at 1 4 5 6 10 14 15,48.2
2'F-ANA at 1 2 4 9 11 12 13 15,154
2'F-ANA at 2 3 5 6 11 14,274
2'F-ANA at 3 4 5 6 7 10 12 14,70.1
2'F-ANA at 3 4 6 7 8 9 11 12 13 14,279
2'F-ANA at 1 2 3 5 6 7 9 10 12 14,48.1
2'F-ANA at 3 4 5 8 9 11 12,201
2'F-ANA at 1 5 8 9 10 12 13,56.1

# A few entries again (block 4):
Modification,mean fluorescence intensity [a.u.]
2'F-ANA at 1 2 3 5 6 7 9 10 12 14,48.1
2'F-ANA at 3 4 5 8 9 11 12,201
2'F-ANA at 1 5 8 9 10 12 13,56.1
